Results of several laboratories.
A part holds a random share of what one study measured.

Sample 1 — method: RNA Bind-n-Seq; form: RNA; medium: in vitro; concentration: 365 nM; relative to: no-protein control; direction: higher = stronger binding
Target: RNA binding protein fox-1 homolog 2, RRM domain, GST-SBP tag (RBFOX2, Homo sapiens, UniProt O43251-10, residues 100-194)
Notes: natural RNA segment, single round, ends assumed
Target sequence (chain): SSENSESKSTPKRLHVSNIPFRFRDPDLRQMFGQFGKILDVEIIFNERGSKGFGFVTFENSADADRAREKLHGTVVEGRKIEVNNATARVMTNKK
| Oligonucleotide | RBNS enrichment (R) |
| --- | --- |
| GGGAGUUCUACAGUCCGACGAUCUGACCCAUCCUGUCUAUCUUCUCAGUUGAGUUUUUAAUCUCACUUUGGGUUUCCUUGUGAAGUUGGAGGGAAGUUUAUAAUAGCCUAACACUACCCCACCCCCAACUAGGUGGAAUUCUCGGGUGCCAA | 0.239 |
| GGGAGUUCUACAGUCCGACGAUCGAUGUAGGGUUUAUUGAAAAUGUGUGGGUUAAAUGCUUUCAGGUACACCAAUUCUUUCUACUAAAUUGAGCUCUAUUUGAAGUUCUUUGGAAUCUGUGGUGAAAAAUAAUUGGAAUUCUCGGGUGCCAA | 0.678 |
| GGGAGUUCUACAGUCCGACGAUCGCUAUGAAGAAAGAUGUGCAGAGACUGGGGUGGAGACUAAGCCAAAGAGGAGCUGCCUAGCCUGGCAGCAUUGCCCCGAGCUGAGCCCCCUUGGCCAGGACUUCACAAGGUGGAAUUCUCGGGUGCCAA | 0.455 |
| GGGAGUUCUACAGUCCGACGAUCUCUAAUCAAGCUAAUUGGUUACUGAAAUGACAUAUUUAUCCCAACUUCUGUACCUUUGCACAAACUCUACCCUCUGACCCUCCACUACCAUCAUACUGACACUCUUUUCCUGGAAUUCUCGGGUGCCAA | 1.72 |
| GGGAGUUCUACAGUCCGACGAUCUUUGGUAACUAGGUUAUGGGCUCUACAUUGUCAGCUACUUGGGAUAUAUAUUUAAUUUUCUUAAAUUCCCGUUAAACUCUAUUUUAUGGUUUUGAUUUCAGAUUGCAAACUGGAAUUCUCGGGUGCCAA | 0.719 |
| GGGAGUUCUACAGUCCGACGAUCGCAAGGUUGCUGGAGGGGGCCCUGGCCCCAGGGAGGAGGGACACGGGGAGGAACUUCUGGGGCUCCUGCUGGGGCCACUUCCUGGGCUGCUCCCUCGGGCCUGUAGGGGGUGGAAUUCUCGGGUGCCAA | 0.553 |
| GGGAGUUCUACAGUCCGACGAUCGGGCUUUGAGUUUCCAGAAAGAGAUGGAAUAAUGGAGACUUUCUUUCCCUGGGGACCAGUGUCAGUGGCAGAGCCAGGGACACCCAUGCACAAGGAGGCAUGCUUGCCCUUGGAAUUCUCGGGUGCCAA | 1.03 |
| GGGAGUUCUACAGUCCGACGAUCCUCUAUUCUCCAUGUCGACUGAGAAGAGUAUAAUAAGAACAUUGUACCCUCUCCACACUUAACCCUCUGGGAUUCUUUAUUAUAAUAUAAACCACCGUCGUGAGGCAUUUUGGAAUUCUCGGGUGCCAA | 0.968 |

Sample 2 — method: protein binding microarray; form: double-stranded DNA, one strand shown; medium: in vitro; concentration: not given; relative to: not given; direction: higher = stronger binding
Target: Histone acetyltransferase KAT6A, winged helix 2, GST fusion (KAT6A, Homo sapiens, UniProt Q92794, residues 85-181)
Notes: 8-mer, flanks averaged, mean of 2 arrays, mostly near background
Target sequence (chain): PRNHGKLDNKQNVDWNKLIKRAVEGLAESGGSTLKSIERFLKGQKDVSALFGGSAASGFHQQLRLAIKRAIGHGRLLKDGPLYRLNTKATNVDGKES
| Oligonucleotide | E-score |
| --- | --- |
| CGCAATAC | 0.13 |
| CTCCAAGC | 0.00152 |
| GATCTAGC | -0.0579 |
| CTAGTAAG | 0.0234 |
| GGTACTGA | -0.0744 |
| TAGGCCCA | -0.0801 |
| CATCCCGG | 0.0899 |
| CACCAAAC | 0.17 |

Sample 3 — method: universal PBM; form: double-stranded DNA, one strand shown; medium: in vitro; concentration: 600 nM; direction: higher = stronger binding
Target: Sal-like protein 4, full length isoform A (SALL4, Homo sapiens, UniProt Q9UJQ4, residues 1-1053)
Sequence of UniProt Q9UJQ4 (whole entry, looked up): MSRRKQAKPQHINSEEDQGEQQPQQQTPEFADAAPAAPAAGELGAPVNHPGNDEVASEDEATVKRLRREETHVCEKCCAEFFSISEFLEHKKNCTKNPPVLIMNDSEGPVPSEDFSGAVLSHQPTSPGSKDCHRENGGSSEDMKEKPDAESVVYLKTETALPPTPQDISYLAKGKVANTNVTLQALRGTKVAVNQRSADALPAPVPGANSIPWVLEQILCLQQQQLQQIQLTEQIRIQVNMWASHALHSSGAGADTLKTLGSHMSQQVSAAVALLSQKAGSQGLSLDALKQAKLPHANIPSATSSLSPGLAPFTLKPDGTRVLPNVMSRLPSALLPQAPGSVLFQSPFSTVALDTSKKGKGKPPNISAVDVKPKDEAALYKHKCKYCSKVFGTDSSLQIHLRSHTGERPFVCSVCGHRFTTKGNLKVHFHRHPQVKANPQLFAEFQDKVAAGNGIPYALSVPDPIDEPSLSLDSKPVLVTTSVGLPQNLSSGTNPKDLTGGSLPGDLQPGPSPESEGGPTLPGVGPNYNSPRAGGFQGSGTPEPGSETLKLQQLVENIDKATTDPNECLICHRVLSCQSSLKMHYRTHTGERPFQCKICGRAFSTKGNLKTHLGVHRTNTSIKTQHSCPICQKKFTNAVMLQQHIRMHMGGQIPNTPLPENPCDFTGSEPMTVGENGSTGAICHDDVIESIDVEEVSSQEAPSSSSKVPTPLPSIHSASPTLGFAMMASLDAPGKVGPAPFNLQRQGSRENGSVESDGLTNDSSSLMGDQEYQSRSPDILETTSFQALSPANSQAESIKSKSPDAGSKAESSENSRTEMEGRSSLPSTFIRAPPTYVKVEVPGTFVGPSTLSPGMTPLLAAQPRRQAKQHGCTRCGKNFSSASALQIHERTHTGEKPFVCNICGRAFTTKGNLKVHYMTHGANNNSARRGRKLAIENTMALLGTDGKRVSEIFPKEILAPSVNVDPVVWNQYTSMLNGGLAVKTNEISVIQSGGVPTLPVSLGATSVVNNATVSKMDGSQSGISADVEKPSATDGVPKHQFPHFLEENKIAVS
Notes: 8-mer, flanks averaged, mean of replicates
| Oligonucleotide | E-score |
| --- | --- |
| AACCCAGT | -0.136 |
| GTCATACA | 0.224 |
| AGACGCCG | -0.246 |
| CCTTTTGC | -0.16 |
| CAGCTACG | -0.165 |
| GTAGATCA | 0.0412 |
| ATCTTATC | 0.191 |
| TGTTCCAA | 0.121 |

Sample 4 — mode: inhibitor; concentration: 20 µM
Target: Replicase polyprotein 1ab, nsp13 helicase (rep, Severe acute respiratory syndrome coronavirus 2, UniProt P0DTD1)
| Structure (SMILES) | inhibition [%] |
| --- | --- |
| C[C@H](Cc1ccc(OCC(=O)O)cc1)NC[C@H](O)c1cccc(Cl)c1 | 1.63 |
| O=c1[nH]c(=O)n([C@H]2C[C@H](O)[C@@H](CO)O2)cc1F | 0.41 |
| CCCCCCOC(=O)NC(=N)c1ccc(NCc2nc3cc(C(=O)N(CCC(=O)OCC)c4ccccn4)ccc3n2C)cc1 | 7.35 |
| CC(C)(C)NCC(O)c1cc(Br)no1 (centres unmarked) | 7.46 |
| Cn1cc(-c2ccncc2)c(-c2ccc(OCc3ccc4ccccc4n3)cc2)n1 | 5.19 |
| CS/C(N)=C(C#N)/C(C#N)=C(\N)SC | 3.83 |
| CC#C[C@]1(O)CC[C@H]2[C@@H]3CCC4=CC(=O)CCC4=C3[C@@H](c3ccc(N(C)C)cc3)C[C@@]21C | -1.41 |
| CC(COc1ccccc1Cc1ccccc1)N1CCCCC1 (centres unmarked) | -4.22 |
| Nc1ncnc2n[nH]c(Nc3ccc(F)cc3)c12 | 3.03 |
| CCCCCCCC/C=C\CCCCCCCC(N)=O | 3.24 |
| CC(=O)OCC(=O)[C@@]1(O)CC[C@H]2[C@@H]3CCC4=CC(=O)C=C[C@]4(C)[C@@]3(Cl)[C@@H](Cl)C[C@@]21C | 5.23 |
| COCC(O)Cn1ccnc1[N+](=O)[O-] (centres unmarked) | 8.6 |
| CC(C)C[C@H](NC(=O)[C@@H](COC(C)(C)C)NC(=O)[C@H](Cc1ccc(O)cc1)NC(=O)[C@H](CO)NC(=O)[C@H](Cc1c[nH]c2ccccc12)NC(=O)[C@H](Cc1cnc[nH]1)NC(=O)[C@@H]1CCC(=O)N1)C(=O)N[C@@H](CCCNC(=N)N)C(=O)N1CCC[C@H]1C(=O)NNC(N)=O | -0.92 |
| Cc1ccc2c(c1)C1(CCN(CCc3nc(-c4ccccc4)oc3C)CC1)OC(=O)N2 | -0.67 |
| CCCOC(C(=O)OC1CCN(C)CC1)(c1ccccc1)c1ccccc1 | 0.45 |
| COC(=O)C1=C(C)NC(C)=C(C(=O)OCCSc2ccccc2)C1C (centres unmarked) | 6.02 |
| CC(C)(C)CC(C)(C)c1ccc(O)c(Cc2ccc(Cl)cc2Cl)c1 | 2.8 |
| C[C@]12N[C@H](Cc3ccccc31)c1ccccc12 | -0.14 |
| COC(=O)[C@@H](N)Cc1ccc(O)c(O)c1 | 0.58 |
| Nc1nc(NCCc2ccc(O)cc2)nc2nc(-c3ccco3)nn12 | 4.94 |
| O=C(O)CCNC(=O)c1ccccc1 | 3.48 |
| Cc1cnc(C(=O)O)c[n+]1[O-] | 8.29 |
| CCN(CC)CCNC(=O)c1cc(Br)c(N)cc1OC | 6.53 |
| CCN(CC)C(=O)c1ccc(C2=CC3(CCNCC3)Oc3cccc(O)c32)cc1 | 1.73 |
| CCC1(c2ccccc2)C(=O)NCNC1=O | 3.32 |

Mixed results
| Compound | target | test | conditions | measurement | result |
| --- | --- | --- | --- | --- | --- |
| CC[N+](C)(CC)CCC[n+]1c(-c2ccccc2)c2cc(N)ccc2c2ccc(N)cc21 | Replicase polyprotein 1ab, main protease (rep, Severe acute respiratory syndrome coronavirus 2, UniProt P0DTD1) | enzyme activity, inhibitor | 20 µM, hit confirmation | inhibition | 90.9% |

Some of these lines once more (sample 2):
| Oligonucleotide | E-score |
| --- | --- |
| CGCAATAC | 0.13 |
| CTCCAAGC | 0.00152 |
| GATCTAGC | -0.0579 |
| CTAGTAAG | 0.0234 |
| GGTACTGA | -0.0744 |
| TAGGCCCA | -0.0801 |
| CATCCCGG | 0.0899 |
| CACCAAAC | 0.17 |
